Assay results pooled from the literature.
Each numbered part is a random draw from the data of one study; scales do not carry over between parts.

Series 1 — method: universal PBM; molecule type: double-stranded DNA, one strand shown; matrix: in vitro; tested at: 600 nM; direction: higher = stronger binding
Target: Sal-like protein 4, full length isoform A (SALL4, Homo sapiens, UniProt Q9UJQ4, residues 1-1053)
Chain of UniProt Q9UJQ4 (whole entry, looked up): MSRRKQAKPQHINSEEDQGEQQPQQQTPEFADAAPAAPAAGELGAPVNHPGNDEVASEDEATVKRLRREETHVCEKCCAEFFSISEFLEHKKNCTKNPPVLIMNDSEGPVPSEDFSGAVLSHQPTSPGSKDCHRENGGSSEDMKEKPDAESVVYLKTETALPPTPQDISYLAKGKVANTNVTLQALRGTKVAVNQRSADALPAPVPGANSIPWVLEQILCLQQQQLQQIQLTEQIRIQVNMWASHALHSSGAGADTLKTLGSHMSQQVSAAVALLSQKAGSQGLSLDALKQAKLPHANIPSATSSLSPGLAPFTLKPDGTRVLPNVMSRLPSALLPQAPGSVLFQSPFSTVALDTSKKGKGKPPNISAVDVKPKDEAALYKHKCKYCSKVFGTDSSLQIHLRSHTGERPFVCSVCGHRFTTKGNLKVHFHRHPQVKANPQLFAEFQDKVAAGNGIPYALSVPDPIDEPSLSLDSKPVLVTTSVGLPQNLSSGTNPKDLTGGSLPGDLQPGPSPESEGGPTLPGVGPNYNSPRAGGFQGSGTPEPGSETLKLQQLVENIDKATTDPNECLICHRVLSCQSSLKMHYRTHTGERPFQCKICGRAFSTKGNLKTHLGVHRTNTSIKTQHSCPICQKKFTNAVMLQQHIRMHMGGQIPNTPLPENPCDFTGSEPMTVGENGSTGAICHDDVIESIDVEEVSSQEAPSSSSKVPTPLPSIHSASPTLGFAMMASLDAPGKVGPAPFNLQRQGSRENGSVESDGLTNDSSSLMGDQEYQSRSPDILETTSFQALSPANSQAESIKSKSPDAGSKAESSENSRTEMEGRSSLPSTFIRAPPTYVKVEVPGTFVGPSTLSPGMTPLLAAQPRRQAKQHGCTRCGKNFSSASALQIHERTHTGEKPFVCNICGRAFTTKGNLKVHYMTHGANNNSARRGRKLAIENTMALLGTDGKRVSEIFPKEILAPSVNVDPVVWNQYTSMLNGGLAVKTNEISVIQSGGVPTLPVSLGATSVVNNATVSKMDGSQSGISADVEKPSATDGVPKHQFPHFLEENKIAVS
Notes: 8-mer, flanks averaged, mean of replicates
| Oligonucleotide | E-score |
| --- | --- |
| AGCGCGTA | 0.00386 |
| ACTTTGAC | 0.0582 |
| CCGGGTAG | -0.324 |
| ACATCCGG | -0.11 |
| CTGGAGTA | 0.00515 |
| TATCGCAA | 0.151 |

Series 2 — method: aptamer microarray, sandwich; molecule type: DNA with 2'F-ANA; matrix: in vitro; tested at: 200 nM; with: Cy3 exosite-II aptamer, 400 nM; direction: higher = stronger binding; oligonucleotide: GGTTGGTGTGGTTGG
Target: Prothrombin, mature alpha-thrombin (F2, Homo sapiens, UniProt P00734)
Notes: whole 15-mer aptamer, many near background
| Modification | mean fluorescence intensity |
| --- | --- |
| 2'F-ANA at 1 3 4 5 6 7 8 9 12 13 | 80.2 a.u. |
| 2'F-ANA at 1 5 7 11 12 14 | 43.8 a.u. |
| 2'F-ANA at 1 4 6 10 12 13 14 | 47 a.u. |
| 2'F-ANA at 3 4 7 11 12 15 | 940 a.u. |
| 2'F-ANA at 2 4 5 6 8 11 12 15 | 112 a.u. |
| 2'F-ANA at 5 6 8 9 11 15 | 63.5 a.u. |

Series 3 — method: competition protein-binding microarray; molecule type: double-stranded DNA, one strand shown; matrix: in vitro; tested at: 2 µM; with: Cbf1 competitor, 0.05 µM; direction: higher = stronger binding; all sequences stand within: … GTCTTGATTCGCTTGACGCTGCTG
Target: Phosphate system positive regulatory protein PHO4, full length, GST-tagged (PHO4, Saccharomyces cerevisiae, UniProt P07270, residues 1-312)
Notes: whole 60-bp probe, lowest competitor level
Residues (chain): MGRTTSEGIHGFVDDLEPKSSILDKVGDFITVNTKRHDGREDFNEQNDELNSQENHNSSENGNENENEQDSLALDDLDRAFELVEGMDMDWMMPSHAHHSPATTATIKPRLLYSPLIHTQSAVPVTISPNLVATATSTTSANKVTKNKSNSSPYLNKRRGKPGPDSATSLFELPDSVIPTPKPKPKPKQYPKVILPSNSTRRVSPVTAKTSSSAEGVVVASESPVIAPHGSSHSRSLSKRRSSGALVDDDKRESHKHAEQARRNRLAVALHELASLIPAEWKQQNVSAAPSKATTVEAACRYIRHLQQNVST
| Oligonucleotide | fluorescence intensity |
| --- | --- |
| ATACTTTTATCGGCCCATGTGTGCCTAGTCAGCTCG | 7900 a.u. |
| AAAGCGGTAATTTGAAAGGTGGGTGCAGATATCTAT | 4270 a.u. |
| AATGATCTTGTTTCTCATGTGGGTTCTGACTGGAGC | 5710 a.u. |
| ATGATGTTGCATTTGCACGTGTTTTGTTGTACCTCT | 16900 a.u. |
| CATACCCAACCTTGTACCGTGGGTGAAGATATTTGT | 6620 a.u. |

Single results of other studies
| Molecule | target | assay | test system | setting | how to read | quantity | value |
| --- | --- | --- | --- | --- | --- | --- | --- |
| PhoQ, residues 284 288 289 292 302 303 HSYLQF | PhoP, residues 12 14 15 18 19 LHTVM (Escherichia coli, UniProt P23836) | Sort-seq, item: YFP reporter | E. coli | PhoQ-PhoP variant library, with: 10 µM Mg2+ | reference: high Mg2+ state, higher = stronger signaling | fold induction | 11.1 |

Excerpt of the above (series 1):
| Oligonucleotide | E-score |
| --- | --- |
| CCGGGTAG | -0.324 |
| TATCGCAA | 0.151 |
